Assay results pooled from the literature.
“And” joins repeats or separate records; there may be more than shown.
Organism: Plasmodium falciparum

CCC1=C(C)C(c2ccc[nH]2)=NC1=CNC12CC3CC(CC(C3)C1)C2
selectivity index (HepG2, D6; reference: HepG2 IC50 over D6 IC50): 237

C[C@H]1[C@@H](CCCOc2cccc(OCCC[C@H]3O[C@@H]4O[C@@]5(C)CC[C@H]6[C@H](C)CC[C@@H]([C@H]3C)[C@@]46OO5)c2)O[C@@H]2O[C@@]3(C)CC[C@H]4[C@H](C)CC[C@@H]1[C@@]24OO3
selectivity index (W2; 72 h; reference: HepG2 over blood-stage parasites): 2.88

Cc1ccc(C(C)C)cc1.[Cl][Ru+].[O-]c1ccccc1C=NCCNc1ccnc2cc(Cl)ccc12
selectivity index (MTT; CHO, D10; reference: IC50 CHO over IC50 D10): 1270

CCCCCCN=Cc1[nH]c(-c2ccc[nH]2)cc1OC
selectivity index (HepG2, D6; reference: HepG2 IC50 over D6 IC50): 785

N#Cc1c(-c2ccco2)[n+]([O-])c2ccc(Cl)cc2[n+]1[O-]
selectivity index (3D7 chloroquine-sensitive; reference: KB IC50 over 3D7 IC50): 7.1

CCCCN1C(=O)c2ccc3c4c(ccc(c24)C1=O)C(=O)N(CCNc1c2ccc(Cl)cc2nc2ccc(OC)cc12)C3=O
selectivity index (NIH3T3, 3D7; reference: CC50 over IC50): > 5.5 and > 5.48

N#Cc1c(-c2ccco2)[n+]([O-])c2ccccc2[n+]1[O-]
selectivity index (3D7 chloroquine-sensitive; reference: KB IC50 over 3D7 IC50): 8.69

COC1=CC(c2ccc[nH]2)=NC1=Cc1[nH]c(Cc2ccc(Cl)cc2)cc1Cc1ccc(Cl)cc1
selectivity index (HepG2, D6; reference: HepG2 IC50 over D6 IC50): > 41000

N#Cc1c(-c2ccco2)[n+]([O-])c2ccc(F)cc2[n+]1[O-]
selectivity index (K1 chloroquine-resistant; reference: KB IC50 over K1 IC50): 9.47

c1cncc(CCCOCCCCCCCCCCOC2CCCCO2)c1 (stereo not drawn)
selectivity index (W2 chloroquine-resistant; reference: IC50 WI-26VA4 over IC50 W2): 0.4

C[C@H]1[C@@H](CCCNC(=O)CC[C@H]2O[C@@H]3O[C@@]4(C)CC[C@H]5[C@H](C)CC[C@@H]([C@H]2C)[C@@]35OO4)O[C@@H]2O[C@@]3(C)CC[C@H]4[C@H](C)CC[C@@H]1[C@@]24OO3
selectivity index (W2; 72 h; reference: HepG2 over blood-stage parasites): 1320

c1cncc(CCCOCCCCCCCCOC2CCCCO2)c1 (stereo not drawn)
selectivity index (W2 chloroquine-resistant; reference: IC50 WI-26VA4 over IC50 W2): 1

c1ccc(CCCNc2ncnc3cc(OCC4CCN(CCNc5ccnc6ccccc56)CC4)ccc23)cc1
selectivity index (HepG2, NF54; reference: HepG2 cytotoxicity over P. falciparum activity): 20

CC(C)C1=CC(=CNC23CC4CC(CC(C4)C2)C3)N=C1c1ccc[nH]1
selectivity index (HepG2, D6; reference: HepG2 IC50 over D6 IC50): 711

C[C@H]1[C@@H](CCCOc2cccc(OCCC[C@H]3O[C@@H]4O[C@@]5(C)CC[C@H]6[C@H](C)CC[C@@H]([C@H]3C)[C@@]46O5)c2)O[C@@H]2O[C@@]3(C)CC[C@H]4[C@H](C)CC[C@@H]1[C@@]24OO3
selectivity index (W2; 72 h; reference: HepG2 over blood-stage parasites): 1.86

CC1=CC(c2ccc[nH]2)=NC1=CNC12CC3CC(CC(C3)C1)C2
selectivity index (HepG2, D6; reference: HepG2 IC50 over D6 IC50): 5310

COc1ccc2c(c1)[n+]([O-])c(C#N)c(-c1ccco1)[n+]2[O-]
selectivity index (K1 chloroquine-resistant; reference: KB IC50 over K1 IC50): 11.3

CC1CCC2C(C)C(CCCN=[N+]=[N-])OC3OC4(C)CCC1C32OO4 (stereo not drawn)
selectivity index (W2; 72 h; reference: HepG2 over blood-stage parasites): > 1620

COC1=CC(c2ccc[nH]2)=NC1=CNC1CCCC1
selectivity index (HepG2, D6; reference: HepG2 IC50 over D6 IC50): 448

Cc1ccc2c(c1)[n+]([O-])c(C#N)c(-c1ccco1)[n+]2[O-]
selectivity index (K1 chloroquine-resistant; reference: KB IC50 over K1 IC50): 7.82

OCCCCCCCCCCCCOCCCc1cccnc1
selectivity index (W2 chloroquine-resistant; reference: IC50 WI-26VA4 over IC50 W2): 2.2

C[C@H]1[C@@H](CCCOc2ccc(OCCC[C@H]3O[C@@H]4O[C@@]5(C)CC[C@H]6[C@H](C)CC[C@@H]([C@H]3C)[C@@]46O5)cc2)O[C@@H]2O[C@@]3(C)CC[C@H]4[C@H](C)CC[C@@H]1[C@@]24OO3
selectivity index (W2; 72 h; reference: HepG2 over blood-stage parasites): 1.86

N#Cc1c(-c2ccco2)[n+]([O-])c2ccc(C(F)(F)F)cc2[n+]1[O-]
selectivity index (3D7 chloroquine-sensitive; reference: KB IC50 over 3D7 IC50): 5.66

CCC1=C(C)C(=CNC2CCCCCCC2)N=C1c1ccc[nH]1
selectivity index (HepG2, D6; reference: HepG2 IC50 over D6 IC50): 337
